Measurements collected from several papers.
Values joined by “and” are separate records of one study, mostly repeats; a detail may differ. ± gives the spread as reported.

SMILES	assay	test system	conditions	how to read	endpoint	result
CC(C)(O)c1ncc([S@](N)(=O)=NC(=O)Nc2c3c(cc4c2CCC4)CCC3)s1	measured: nervous system disorders	healthy human volunteers	oral, 25 mg twice daily, 14 days, enteric-coated tablet		subjects with adverse events	13%
O=C(Nc1cnccc1-c1ccc([18F])cc1)c1ccnc(NC(=O)C2CC2)c1	ex vivo gamma counting	GSK-3β transgenic mice, early-stage, urine	intravenous, 120 min, mean, P-gp inhibitor pretreatment, added: tariquidar 15 mg/kg iv		SUV	7.79
CNCc1ccc(-c2cc(=O)c3ccc4[nH]c(C(F)(F)F)nc4c3o2)cc1		ICR mice, brain	oral, 5 mg/kg		t1/2	3.49 h
C#CC1(NC(=O)C(CC(C)(C)F)NC(c2ccc(-c3ccc(S(C)(=O)=O)cc3)cc2)C(F)(F)F)CC1 (stereo not drawn)		PBS	100 µM, 23 h, pH 7.45, 37 °C, added: cysteine 10 mM		cysteine adduct formation	0%
COC(=O)C(C)n1nc(Cn2cc3cc(OCC[18F])c(Cl)cc3n2)c2ccccc2c1=O (racemic)		rat, brain	150 min		radiometabolite	33%
C[C@H](C(=O)O)c1ccc(-c2ccccc2)c(F)c1	HPLC	solution	concentration not given, 2 h, room temperature		relative change of HPLC peak area	0.99%
CN1CCC[C@]1(C)/C=C/S(=O)(=O)NC(=O)Nc1c2c(cc3c1CCC3)CCC2	measured: general and administration site disorders	human	oral, 50 mg twice daily, 14 days, multiple ascending dose		subjects with adverse event	16.7%
O=C(Nc1cnccc1-c1ccc([18F])nc1)c1ccnc(NC(=O)C2CC2)c1		FVB/NJ mice, both sexes, brain	intravenous, 15 min, median, P-gp inhibitor pretreatment, added: tariquidar 15 mg/kg iv		SUV	0.229
C=C(NC(=O)c1csc(-c2nc3c(cc2O)-c2nc(cs2)C(=O)NC(C(C)O)C(=O)NC(=C(C)OC)c2nc(cs2)C(=O)NC2c4nc(cs4)C(=O)NC(COC(=O)c4c5c6c(cccc6n4O)COC(=O)C(OC4CC(C)(O)C(N(C)C)C(C)O4)C2OC5)c2nc-3cs2)n1)C(N)=O (stereo not drawn)		Sprague-Dawley rat, both sexes, plasma	intravenous infusion, 6 mg/kg, multiple doses, day 7		Vz/F	38.8 L/kg
Cc1cccc(Cn2ncc3c4cc(F)c(CN(C)C)cc4n(C)c3c2=O)n1		Dutch-belted rabbit, plasma	intravitreal, 1 µM vitreous, 14.00 days		plasma concentration	not detected
COCC1CN(C2CCN(c3cc(OC)c(Nc4ncc(Br)c(Nc5ccc6c(c5P(C)(C)=O)OCCO6)n4)cc3C)CC2)C1	first-in-human trial	human	oral, 60 mg once daily	treatment-related leading to dose suspension	adverse events	0%
COc1cc(C)c(C(N)=O)cn1	metabolic stability	human, liver microsomes	1 µM, pH 7.4		microsomal CLint	< 3 µL/min/mg
CN1CCCNC(=O)c2cccc(c2)C(=O)NCCCN(C)CCCNc2cccc3c2C(=O)c2cccc(c2C3=O)NCCC1		mouse, serum	dose not given		AST	58 IU/L and 51 IU/L and 50 IU/L
O=C(c1ccccc1)N1C(c2ccc(OCC3CCN(CCCF)C3)cc2)c2ccc(O)cc2CC12CC2 (stereo not drawn)		C57BL/6J mouse, plasma	oral, 25 mg/kg, group mean		MRT(0-inf)	3.88 h
COc1ccnc(C(=O)N[C@H]2COC(=O)[C@H](Cc3ccccc3)[C@@H](OC(=O)C(C)C)[C@H](C)OC2=O)c1O		whole water/sediment system	geometric mean, top-down approach		DT50	2.7 days
COc1cnc2cccc(N3CCc4c(cc(Cn5ccnc5)cc4-c4cn(C)nc4C(F)(F)F)C3=O)c2c1		male CD-1 mouse, plasma	intraperitoneal, 10 mg/kg		Cmax	8680 ng/mL
CCCC[C@H](NC(=O)CNC(=O)CNC(=O)[C@H](CCCCNC(=O)C(C)c1ccc(CC(C)C)cc1)NC(=O)CN1CCN(CC(=O)O)CCN(CC(=O)O)CCN(CC(=O)O)CC1)C(=O)N[C@H]1CC(=O)NCCCC[C@@H](C(N)=O)NC(=O)[C@H](Cc2c[nH]c3ccccc23)NC(=O)[C@H](CCCNC(=N)N)NC(=O)[C@@H](Cc2ccccc2)NC(=O)[C@H](Cc2c[nH]cn2)NC1=O (stereo partly drawn) [lutetium-177 labelled]		C57 mice, tumour	2 h	baseline: liver	tumour-to-tissue ratio	0.92
CCCCN1C(=O)c2cccc3c(NCCCCCCN4CCOCC4)ccc(c23)C1=O		ethyl acetate			fluorescence lifetime	9.7 ns
Cc1ccc(CN2C(=O)/C(=N\c3ccc(Cl)cc3Br)c3ccccc32)cc1		mouse, blood	200 mg/kg		granulocytes	43.4 ± 6.5%
Cc1nc(N)nc2c1C(=O)N[C@@H](c1ccc(F)cc1-c1cccc(O[11CH3])n1)C2	ex vivo biodistribution	mice, U87 subcutaneous xenograft, brain	60 min post-injection, baseline, vehicle pre-treatment		tracer uptake	4 ± 0.7 %ID
O=C([O-])CN1CCN(CC(=O)[O-])CCN(C(CO)C(O)CO)CCN(CC(=O)[O-])CC1.[Dy+3] (stereo not drawn)	ICP-MS	cynomolgus monkey, feces	2 days post-injection	baseline: dose	cumulative fecal excretion	0.2%
COc1cccc(OC)c1-c1cc(C(=O)NC2(C(=O)O)C3CC4CC(C3)CC2C4)nn1-c1ccc(C(=O)N(C)CCOCCOCCN(C)C(=O)[C@H](CCCCNC(=O)[C@H](CC(C)C)NC(=O)C2OC2C(=O)O)NC(=O)CN2CCN(CC(=O)[O-])CCN(CC(=O)[O-])CCN(CC(=O)[O-])CC2)cc1C(C)C.[177Lu+3] (mixture of isomers)		mouse, HT-29 xenograft	4 h post injection, biodistribution	baseline: tumour over heart uptake	tumour-to-heart ratio	2.96
NCCCC[C@H](NC(=O)[C@H](Cc1c[nH]c2ccccc12)NC(=O)[C@H](Cc1c[nH]c2ccccc12)NC(=O)[C@@H](N)Cc1c[nH]c2ccccc12)C(N)=O		DOPC vesicles	2 h		Trp emission maximum	355 nm
C[N+](C)(CCOCCOCCOCCNC(=S)Nc1ccc(C[C@H]2CN(CC(=O)[O-])CCN(CC(=O)[O-])CCN2CC(=O)[O-])cc1)C[c-]1cccc1.[64Cu+2].[Fe+2].c1cc[cH-]c1	pretargeted biodistribution	nude mouse, BxPC-3 xenograft tumour	8 h post injection, 216 h lag time		tumour uptake	1.1 ± 0.4 %ID/g
C=Cc1c(C)c2cc3nc(c(CC(=O)OCCOCCOCCOC)c4[nH]c(cc5nc(cc1[nH]2)C(C)=C5CC)c(C)c4C(=O)OCCOCCOCCOC)[C@@H](CCC(=O)OCCOCCOCCOC)[C@@H]3C	LC-MS	methanol-water 9:1	5 min, pH 2.0		compound loss	25%
C=CC(=O)Nc1cc(Nc2nccc(-c3cn(C4CC4)c4ccccc34)n2)c(OC)cc1N(C)CCNC	autosampler stability	rat plasma	1 ng/mL, 4 h, 10 °C	baseline: nominal concentration	relative error	12.6%
C=CC(=O)Nc1cc(Nc2nccc(-c3cn(C)c4ccccc34)n2)c(OC)cc1N(C)CCNC	storage stability	human plasma	30 d, on ice, LLOQ level		recovery	50.6%

Excerpt of the above:
SMILES	assay	test system	conditions	how to read	endpoint	result
C=Cc1c(C)c2cc3nc(c(CC(=O)OCCOCCOCCOC)c4[nH]c(cc5nc(cc1[nH]2)C(C)=C5CC)c(C)c4C(=O)OCCOCCOCCOC)[C@@H](CCC(=O)OCCOCCOCCOC)[C@@H]3C	LC-MS	methanol-water 9:1	5 min, pH 2.0		compound loss	25%
C=CC(=O)Nc1cc(Nc2nccc(-c3cn(C4CC4)c4ccccc34)n2)c(OC)cc1N(C)CCNC	autosampler stability	rat plasma	1 ng/mL, 4 h, 10 °C	baseline: nominal concentration	relative error	12.6%
C=CC(=O)Nc1cc(Nc2nccc(-c3cn(C)c4ccccc34)n2)c(OC)cc1N(C)CCNC	storage stability	human plasma	30 d, on ice, LLOQ level		recovery	50.6%
